Values quoted from earlier work that unrelated publications cite.
Compare with care: the assays were run in different laboratories. ± gives the spread as reported.
Ar: Androgen receptor (Ar, Rattus norvegicus, UniProt P15207)
Sequence of UniProt P15207 (whole entry, looked up): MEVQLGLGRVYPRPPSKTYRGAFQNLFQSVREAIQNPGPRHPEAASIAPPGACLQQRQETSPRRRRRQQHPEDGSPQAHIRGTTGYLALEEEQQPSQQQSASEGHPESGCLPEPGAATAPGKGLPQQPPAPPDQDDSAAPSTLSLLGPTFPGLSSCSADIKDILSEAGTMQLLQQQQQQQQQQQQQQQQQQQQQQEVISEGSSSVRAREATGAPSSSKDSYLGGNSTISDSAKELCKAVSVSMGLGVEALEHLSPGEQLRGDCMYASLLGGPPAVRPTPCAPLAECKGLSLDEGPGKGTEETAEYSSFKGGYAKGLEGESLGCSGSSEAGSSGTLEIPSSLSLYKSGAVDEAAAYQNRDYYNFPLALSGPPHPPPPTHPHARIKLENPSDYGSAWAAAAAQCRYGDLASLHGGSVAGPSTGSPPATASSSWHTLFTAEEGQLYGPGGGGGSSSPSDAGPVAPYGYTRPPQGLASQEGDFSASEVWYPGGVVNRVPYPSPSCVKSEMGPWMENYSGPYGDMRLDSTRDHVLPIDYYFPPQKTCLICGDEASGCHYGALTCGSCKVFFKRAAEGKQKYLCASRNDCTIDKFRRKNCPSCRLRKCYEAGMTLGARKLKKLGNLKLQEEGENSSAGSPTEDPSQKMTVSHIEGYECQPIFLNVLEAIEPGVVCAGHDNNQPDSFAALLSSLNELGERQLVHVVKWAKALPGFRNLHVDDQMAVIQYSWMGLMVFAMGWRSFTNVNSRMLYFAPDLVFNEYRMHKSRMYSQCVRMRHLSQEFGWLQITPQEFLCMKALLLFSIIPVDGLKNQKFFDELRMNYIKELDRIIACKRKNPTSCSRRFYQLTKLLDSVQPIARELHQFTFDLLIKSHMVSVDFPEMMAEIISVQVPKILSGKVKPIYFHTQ
Sequence of UniProt P42336 (whole entry, unmodified, looked up): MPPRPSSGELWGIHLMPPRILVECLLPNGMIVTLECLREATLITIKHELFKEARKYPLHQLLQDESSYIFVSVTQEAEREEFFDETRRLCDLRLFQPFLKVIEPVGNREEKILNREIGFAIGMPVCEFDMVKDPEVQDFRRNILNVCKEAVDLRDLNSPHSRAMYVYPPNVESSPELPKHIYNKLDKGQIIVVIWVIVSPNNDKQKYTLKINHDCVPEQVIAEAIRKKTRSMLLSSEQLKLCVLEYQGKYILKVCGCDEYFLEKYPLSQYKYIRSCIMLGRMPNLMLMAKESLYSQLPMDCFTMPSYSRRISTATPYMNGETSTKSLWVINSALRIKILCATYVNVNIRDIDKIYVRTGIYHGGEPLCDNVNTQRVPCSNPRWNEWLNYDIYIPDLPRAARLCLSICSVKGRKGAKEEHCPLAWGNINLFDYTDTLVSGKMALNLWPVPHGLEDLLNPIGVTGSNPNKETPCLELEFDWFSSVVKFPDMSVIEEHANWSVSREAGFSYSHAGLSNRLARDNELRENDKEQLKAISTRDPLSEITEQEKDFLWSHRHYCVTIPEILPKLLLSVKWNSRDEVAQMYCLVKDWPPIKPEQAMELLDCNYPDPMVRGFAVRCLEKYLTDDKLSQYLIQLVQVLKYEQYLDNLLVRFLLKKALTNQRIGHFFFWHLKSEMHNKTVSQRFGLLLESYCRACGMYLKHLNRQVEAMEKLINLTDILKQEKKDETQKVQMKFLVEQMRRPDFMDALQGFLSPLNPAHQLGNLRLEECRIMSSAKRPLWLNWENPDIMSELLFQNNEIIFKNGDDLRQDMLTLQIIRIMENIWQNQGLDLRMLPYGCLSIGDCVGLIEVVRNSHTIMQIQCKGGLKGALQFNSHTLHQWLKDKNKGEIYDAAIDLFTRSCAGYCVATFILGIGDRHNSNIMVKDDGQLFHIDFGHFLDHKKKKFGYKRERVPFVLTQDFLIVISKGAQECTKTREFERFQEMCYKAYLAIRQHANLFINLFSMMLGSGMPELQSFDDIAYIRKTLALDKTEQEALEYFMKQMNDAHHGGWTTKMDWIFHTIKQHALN
Sequence of UniProt P30542 (whole entry, looked up): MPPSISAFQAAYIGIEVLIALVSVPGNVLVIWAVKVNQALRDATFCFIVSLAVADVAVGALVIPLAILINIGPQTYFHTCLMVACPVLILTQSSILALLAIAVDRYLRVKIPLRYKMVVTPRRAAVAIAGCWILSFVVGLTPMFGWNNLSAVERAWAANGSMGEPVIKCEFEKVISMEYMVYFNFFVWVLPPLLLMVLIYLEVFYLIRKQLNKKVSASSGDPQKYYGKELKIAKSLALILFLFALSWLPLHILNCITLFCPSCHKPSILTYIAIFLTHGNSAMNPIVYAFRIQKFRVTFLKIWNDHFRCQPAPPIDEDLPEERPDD
Sequence of UniProt P08913 (whole entry, looked up): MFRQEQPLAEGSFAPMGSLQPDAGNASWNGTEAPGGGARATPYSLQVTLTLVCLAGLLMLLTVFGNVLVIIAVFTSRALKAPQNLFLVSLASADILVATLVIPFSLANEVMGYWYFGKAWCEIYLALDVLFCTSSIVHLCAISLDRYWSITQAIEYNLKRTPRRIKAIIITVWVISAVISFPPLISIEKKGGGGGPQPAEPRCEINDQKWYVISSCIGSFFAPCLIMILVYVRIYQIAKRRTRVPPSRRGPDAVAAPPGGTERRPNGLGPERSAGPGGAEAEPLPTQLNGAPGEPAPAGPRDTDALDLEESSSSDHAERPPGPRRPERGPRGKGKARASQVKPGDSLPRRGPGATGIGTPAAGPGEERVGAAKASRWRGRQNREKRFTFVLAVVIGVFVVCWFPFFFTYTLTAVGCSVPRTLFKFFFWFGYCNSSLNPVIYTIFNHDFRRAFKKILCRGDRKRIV
Sequence of UniProt P46098 (whole entry, looked up): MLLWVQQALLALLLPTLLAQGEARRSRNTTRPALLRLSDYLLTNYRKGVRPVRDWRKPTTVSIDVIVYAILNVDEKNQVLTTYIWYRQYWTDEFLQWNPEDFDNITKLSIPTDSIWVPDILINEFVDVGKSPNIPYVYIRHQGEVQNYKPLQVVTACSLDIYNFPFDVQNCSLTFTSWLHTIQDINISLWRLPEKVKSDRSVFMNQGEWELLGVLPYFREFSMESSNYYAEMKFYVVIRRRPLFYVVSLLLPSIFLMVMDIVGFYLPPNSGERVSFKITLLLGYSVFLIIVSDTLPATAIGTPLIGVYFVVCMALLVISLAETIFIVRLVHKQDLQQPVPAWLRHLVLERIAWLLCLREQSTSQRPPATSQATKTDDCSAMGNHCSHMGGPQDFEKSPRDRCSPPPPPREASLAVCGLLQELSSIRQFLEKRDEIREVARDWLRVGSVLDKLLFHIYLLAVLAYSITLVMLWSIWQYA
Sequence of UniProt P04789 (whole entry, looked up): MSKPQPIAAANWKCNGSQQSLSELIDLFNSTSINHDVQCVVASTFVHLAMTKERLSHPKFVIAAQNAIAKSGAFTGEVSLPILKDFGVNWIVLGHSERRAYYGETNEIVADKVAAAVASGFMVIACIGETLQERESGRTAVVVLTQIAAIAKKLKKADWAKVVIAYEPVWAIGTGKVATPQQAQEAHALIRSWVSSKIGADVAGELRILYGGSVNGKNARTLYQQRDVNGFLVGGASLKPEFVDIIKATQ
Sequence of UniProt P33535 (whole entry, looked up): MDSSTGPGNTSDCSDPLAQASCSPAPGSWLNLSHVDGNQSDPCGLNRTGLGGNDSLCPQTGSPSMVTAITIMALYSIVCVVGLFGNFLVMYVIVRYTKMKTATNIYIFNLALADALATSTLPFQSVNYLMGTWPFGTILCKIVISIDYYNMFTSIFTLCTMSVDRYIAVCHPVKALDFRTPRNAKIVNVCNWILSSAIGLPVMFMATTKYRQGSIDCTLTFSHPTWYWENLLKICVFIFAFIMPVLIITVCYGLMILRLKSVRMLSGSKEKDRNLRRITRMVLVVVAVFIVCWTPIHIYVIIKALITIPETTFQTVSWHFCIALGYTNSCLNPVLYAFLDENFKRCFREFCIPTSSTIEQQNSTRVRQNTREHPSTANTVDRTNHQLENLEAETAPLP
Sequence of UniProt P43140 (whole entry, looked up): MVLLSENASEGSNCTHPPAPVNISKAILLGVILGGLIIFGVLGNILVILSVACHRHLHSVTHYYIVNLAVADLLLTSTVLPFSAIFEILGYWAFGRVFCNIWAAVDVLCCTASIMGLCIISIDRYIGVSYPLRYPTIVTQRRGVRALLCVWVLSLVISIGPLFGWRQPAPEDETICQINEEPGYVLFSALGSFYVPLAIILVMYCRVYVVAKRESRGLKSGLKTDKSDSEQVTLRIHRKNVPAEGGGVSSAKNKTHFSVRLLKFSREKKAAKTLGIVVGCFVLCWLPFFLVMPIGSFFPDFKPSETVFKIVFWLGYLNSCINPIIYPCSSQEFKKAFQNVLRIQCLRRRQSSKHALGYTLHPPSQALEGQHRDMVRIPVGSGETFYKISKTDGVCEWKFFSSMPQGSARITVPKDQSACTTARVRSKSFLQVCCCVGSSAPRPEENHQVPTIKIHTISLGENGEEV

The Ki of `COC(=O)[C@@H]1C[C@H](OC(C)=O)C(=O)[C@H]2[C@@]1(C)CC[C@H]1C(=O)O[C@H](c3ccoc3)C[C@]21C` is reported as 19.1 ± 4.6 nM (kappa opioid receptor I133A).
For `c1ccc(CNc2nc(NCc3ccccc3)c3ccccc3n2)cc1`, the Ki was 3200 nM (p97 (VCP); inhibitor).
With `COc1cc2nc(N3CCN(C(=O)c4ccco4)CC3)nc(N)c2cc1OC` the Hill coefficient was 0.9 (Adra1a (Rattus norvegicus, UniProt P43140)).
Under activity class, `CC12CC1(C)C(=O)N(c1cc(Cl)cc(Cl)c1)C2=O` (stereo not drawn) is recorded as “active” (Ar; binding; concentration not given).
For `O=C[C@H](O)COP(=O)(O)O`, the Km was 980 µM (Triosephosphate isomerase, glycosomal (Trypanosoma brucei brucei, UniProt P04789); substrate; pH 5.7).
The inhibition of `Cc1ccncc1NC(=O)Cc1cccc(Br)c1` is reported as 56.2% (main protease (Mpro); 20 µM).
The Hill coefficient of `C[C@H](Cc1ccccc1)Nc1ncnc2c1ncn2[C@@H]1O[C@H](CO)[C@@H](O)[C@H]1O` is reported as 0.9 (ADORA1 (Homo sapiens, UniProt P30542)).
With `COc1ccccc1OCCNC(=O)c1cc(=O)[nH]c2cc(F)ccc12` the inhibition was -6.6% (main protease (Mpro); 20 µM).
Under activity class, `CC(C)(C)CC(C)(C)c1ccc(O)cc1` is recorded as “active” (Ar; binding; concentration not given).
With `CC(=O)N1CC[C@@H](NC(=O)[C@@H](N)Cc2c(C)cc(O)cc2C)c2cc(Cc3ccccc3)ccc21` the stimulation was 76 ± 4.2% (Oprm1 (Rattus norvegicus, UniProt P33535); agonist; concentration not given).
`Nc1ncc(-c2nc(N3CCOCC3)nc(N3CCOCC3)n2)c(C(F)F)n1` gave a remaining binding of 0% (PIK3CA (Homo sapiens, UniProt P42336, H1047Y); KinomeScan competition binding; 10 µM).
`CN1[C@@H]2CC[C@H]1C[C@@H](OC(=O)c1cc(Cl)cc(Cl)c1)C2` gave a Hill coefficient of 0.8 (HTR3A (Homo sapiens, UniProt P46098)).
For `CC(C)(O)C(=O)Nc1ccc([N+](=O)[O-])c(C(F)(F)F)c1`, activity class read “active” (Ar; concentration not given).
`CC(C)[C@@H](CN1CC[C@@](C)(c2cccc(O)c2)[C@@H](C)C1)NC(=O)[C@@H]1Cc2ccc(O)cc2CN1C` has a Ke of 491 ± 120 nM (delta opioid receptor (human); antagonist; added: DPDPE).
For `CC(C)(O/N=C(\C(=O)N[C@@H]1C(=O)N2C(C(=O)[O-])=C(C[N+]3(CCNC(=O)c4ccc(O)c(O)c4Cl)CCCC3)CS[C@H]12)c1csc(N)n1)C(=O)O`, the Km was 295 µM (VIM-1; hydrolysis by enzyme, substrate).
The clearance of `CCCCCOc1ccc(-c2ccc(-c3ccc(C(=O)N[C@H]4C[C@@H](O)[C@@H](O)NC(=O)[C@@H]5[C@@H](O)[C@@H](C)CN5C(=O)[C@H]([C@@H](C)O)NC(=O)[C@H]([C@H](O)[C@@H](O)c5ccc(O)cc5)NC(=O)[C@@H]5C[C@@H](O)CN5C(=O)[C@H]([C@@H](C)O)NC4=O)cc3)cc2)cc1` is reported as 0.76 ± 0.2 L/h (moderate hepatic impairment patients; 50 mg single dose).
For `COC(=O)[C@@H]1[C@H]2C[C@H]3c4[nH]c5ccccc5c4CCN3C[C@@H]2CC[C@@H]1O`, the Hill coefficient was 0.9 (ADRA2A (Homo sapiens, UniProt P08913)).
`O=c1c(-c2ccc(O)cc2)coc2cc(O)ccc12`: “AR binding call” “inactive” (Ar; validation reference set; concentration not given).

For quick reference, copied from above:
The inhibition of `Cc1ccncc1NC(=O)Cc1cccc(Br)c1` is reported as 56.2% (main protease (Mpro); 20 µM).
